# Assay results gathered from unrelated publications.
# A part holds a random share of what one study measured.

# Study 1
# Target: RNA binding protein fox-1 homolog 2, RRM domain, GST-SBP tag (RBFOX2, Homo sapiens, UniProt O43251-10, residues 100-194)
# Method: RNA Bind-n-Seq
# Form: RNA
# Matrix: in vitro
# Tested at: 365 nM
# Setting: natural RNA segment, single round, ends assumed
# Relative to: no-protein control
# Direction: higher = stronger binding
# Target sequence (chain): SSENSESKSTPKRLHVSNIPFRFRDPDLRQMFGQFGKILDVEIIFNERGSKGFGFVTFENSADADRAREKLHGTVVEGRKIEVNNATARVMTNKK
Oligonucleotide,RBNS enrichment (R)
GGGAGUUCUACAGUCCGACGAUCCUAAUACAGGUAUGUAACAACAAAAGAAGUUGCCUGCAUGCCGGUCCAAAUUGUUCUGUAUAAAGAUGCUCUUAAAAGACACAAGAGUUAUCCUAGAACCUUAAUUCUUUUGGAAUUCUCGGGUGCCAA,0.344
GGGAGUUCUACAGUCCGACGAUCAUGCUGUAUUUUUGAAGGUAUUUUGUUGUAUUAAGUUUGAUGAAGCUAAAAUUAGGGAACUCUGAACAGAUUUGCAGGAAAAAAUGUUUUAAAGGCUUUAAAACAUUAGGUGGAAUUCUCGGGUGCCAA,1.77
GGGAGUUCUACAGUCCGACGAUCAGCUGGGAUGCUUACUGUGAAAGGGUCUUGUGAGUGACUAAUGGAAUAUAUGGCUGUGAGAUUUUGCUGUUUUUCUUUCCUUUUGAUUUUUUUUUAAUCCUCCCAGUACUUGGAAUUCUCGGGUGCCAA,1.34
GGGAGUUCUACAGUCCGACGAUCUAGACUUGGGUUGUGGGAACAGUUGAUAAAGUUCUGGAAAGAUGCCAUUCAUUCUACAGUCUUCCCAAGGUGUCCUAGUCUCUCCCAGGCCCCUGUGAUUUUCUCACAUAUGGAAUUCUCGGGUGCCAA,0.242
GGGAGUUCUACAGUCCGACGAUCGGAUUUUCUUUUAAACUAAACCUUUCUACUCGCCCGGAAAAAUUCCUUGGAGAUAUCGAAGUAUGGGAUCAAGCUGAGAAAGAACUUGAAAACAGUCUGAAUGAAUUUGGUGGAAUUCUCGGGUGCCAA,0.397
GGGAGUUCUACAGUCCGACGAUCCUGGCCAUUUGAAAGCCUAGUAUUUAUUUGUAUGUCAAUAUUUGCCCAGUUGAUGUCCUAUGUAGAGUUAAUUGUAAAACUUGAAGAAUUUCAGACAUAACCAACUUAUAUGGAAUUCUCGGGUGCCAA,0.45
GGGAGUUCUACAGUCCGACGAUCCGUGGGGAGGAUAGAUGUGCUCUGGAACUUUCUGAAGGACCAGCAGCUUCAGGGACUCUUAGUCUGUCCUUCCCCACUUUUGGUCCCAACAUCCCUGGGAUGGUGUGCUGUGGAAUUCUCGGGUGCCAA,0.373
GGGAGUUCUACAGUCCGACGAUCGCAGGGUCAGCCGGCUGUCAGAGUCUAAGGUCUCCAGCAGCCAUCAGGGUAAUACCCUGACACUGGAGUCCAGACGCAACCAGCUUUAACCAAUGGAAAACGGGGUUGGCUGGAAUUCUCGGGUGCCAA,0.225
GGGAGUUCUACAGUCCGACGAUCCAGUGCUGGAGAGCGGAGGAUUGGGGGCGGGGAUUCAGACUUUCUGGGUUCACAUCUGUGUUUUGCAUGUCCAGCAGUGGGGCUCUGGACUCCCUAGCGCCCUGGUUGUGUGGAAUUCUCGGGUGCCAA,8

# Study 2
# Target: Fragile X messenger ribonucleoprotein 1, C-terminal low-complexity region (Fmr1, Mus musculus, UniProt P35922)
# Method: RNA Bind-n-Seq
# Form: RNA
# Matrix: in vitro
# Tested at: 200 nM
# Setting: whole 134-nt RNA, ends assumed
# Added: 150 mM KCl
# Relative to: input library
# Direction: higher = stronger binding
Oligonucleotide,log2 enrichment
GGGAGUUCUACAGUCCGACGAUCACCAUGCAGGUGGGCACCUUUGGGAAGUGGGGCAAGGGGGGGAUAGGGAGGGGGGUAACACUUUGGGAACAGGUGGUCCCAGGUCGUUUCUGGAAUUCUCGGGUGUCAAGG,0.959
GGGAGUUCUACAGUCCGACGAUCGCAGGAAGUAAAAACAAAUGGAAAUGCUUCGGAUAGUGGCAGGGGUGGGGGUUGCUAAGGAAAGGGUGGGAUGGAAGUGGGUAAAGAGUUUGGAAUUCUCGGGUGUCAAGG,0.292
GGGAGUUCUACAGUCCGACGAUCACCAUGCAGGUGGGCAUCUUUGGGAAGUGGGGAAAGGGGGGGAUAGGGAGGGGGGUAACACUUUGGGAACAGGUGGUCCCAGGUCGUUUCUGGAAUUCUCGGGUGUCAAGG,0.626
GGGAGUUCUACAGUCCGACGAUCACUGAUGAGAGCCUGAGGAGCCAUUUUGAGCAAUGGGGAACGCUCACGGACUGUGUGGUAAGAUUUGGAAGGGACAAAGCAGUAAAACAGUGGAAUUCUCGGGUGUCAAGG,0.249
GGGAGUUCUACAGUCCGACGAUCAGUCCUGUGCUACACAUCGUAUGUACCGAAUCAAAUUUUUAAAUUUAAAUUUUUAAAAAAGUAUUAUGUUACGCCGUUCGGAUCUGCACUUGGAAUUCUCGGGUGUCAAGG,-1.25
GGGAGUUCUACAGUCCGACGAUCGCAGGAAGUAAAAACAAAUGGAAAUGCUUCGGAUUGUGGCAGGGGUGGGGGUUGCUAAGGAAAGGGUGGGAUGGGAGUGGGUAAAGAGUUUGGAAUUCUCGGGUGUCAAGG,0.27
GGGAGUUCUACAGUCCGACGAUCCACAGACAACACGCACCCACACAGACACAGAGGGAAGGGGUUGGGAUGGGAAAAGGGUGCACAGCAGGGCGGGGUAGGACCCCAGCCCCUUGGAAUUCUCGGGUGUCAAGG,1.34
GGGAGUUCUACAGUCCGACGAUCCACAGACAACACGCACCCACACAGACACAGAGGGAAGGGGUUGGGAUGGGGACAGGGUGCACAGCUGGGCGGGGUAGGACCCCAGCCCCUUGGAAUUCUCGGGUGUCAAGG,1.34
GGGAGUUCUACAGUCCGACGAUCAAGUCCUGUGCUACACAUCGUAUGUACCGAAUCGGGCCCCGGGCCCCGGCCCCGGGAAAGUAUUAUGUUACGCCGUUCGGAUCUGCACUUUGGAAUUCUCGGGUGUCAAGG,-0.932
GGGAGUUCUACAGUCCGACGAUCUCCUGUGCUACACAUCGUAUGUACCGAAUCGGGGUUUGGGGAAAAAGGGGAAAAAGGGGAAAGUAUUAUGUUACGCCGUUCGGAUCUGCAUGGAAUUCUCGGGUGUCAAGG,0.588

# Study 3
# Target: Interferon regulatory factor 5, full length, phosphomimetic (IRF5, Homo sapiens, UniProt Q13568-2, residues 1-514, K96S/S451D/S453D/S456D/S462D)
# Method: protein-binding microarray
# Form: double-stranded DNA, one strand shown
# Matrix: in vitro
# Tested at: 250 nM
# Setting: 60-bp whole probe
# Added: salmon DNA 0.4 mg/ml
# Relative to: random background probes
# Direction: higher = stronger binding
# Shared flanks, not repeated: GCCTAGCAC … GTCTTGATTCGCTTGACGCTGCTG
Oligonucleotide,log fluorescence
TCAATTTTCATTTTGTGACTGTGCTAG,2.14 z-score
TTAGATTCCGGTTTCGATTAGTGCTAG,8.8 z-score
TCAAAGTTCATGTTCAAACTGTGCTAG,0.161 z-score
GACGGAATCGGGACTGGGGACGTGCTA,-0.155 z-score
TTTATTTATTTATTTATTTAGTGCTAG,1.35 z-score
GACGGTTACGACACTGGGGACGTGCTA,-0.0729 z-score
TCATTTTTTTTTTTTTTACTGTGCTAG,1.26 z-score
TTAGTACTGGACACTGGGTTAGTGCTA,0.0234 z-score
GACGGTTTCGGTTTCAGGACGTGCTAG,10.2 z-score
AGTGTTATAATATTATTGCAGTGCTAG,0.599 z-score
TTAGGACTGCTTTTACTTTAGTGCTAG,0.34 z-score
TTAGATATCGGGAATCGATTAGTGCTA,1.83 z-score
TTAGGTTTCGACTTTCGGGTAGTGCTA,9.38 z-score
AAACTAGTGTTTTTCTCCTAGTGCTAG,0.641 z-score
CTGATTTCCACTTTCTTAATGTGCTAG,2.14 z-score
TTAGGTATCCTTACCCTTTAGTGCTAG,0.113 z-score
TTAGGTTTCGGTCTCCGTTAGTGCTAG,10.6 z-score
TCATCTCTTATTCTAACACTGTGCTAG,0.729 z-score

# Study 4
# Target: Phosphate system positive regulatory protein PHO4, full length, GST-tagged (PHO4, Saccharomyces cerevisiae, UniProt P07270, residues 1-312)
# Method: competition protein-binding microarray
# Form: double-stranded DNA, one strand shown
# Matrix: in vitro
# Tested at: 2 µM
# Setting: whole 60-bp probe, lowest competitor level
# Added: Cbf1 competitor, 0.05 µM
# Direction: higher = stronger binding
# Target sequence (chain): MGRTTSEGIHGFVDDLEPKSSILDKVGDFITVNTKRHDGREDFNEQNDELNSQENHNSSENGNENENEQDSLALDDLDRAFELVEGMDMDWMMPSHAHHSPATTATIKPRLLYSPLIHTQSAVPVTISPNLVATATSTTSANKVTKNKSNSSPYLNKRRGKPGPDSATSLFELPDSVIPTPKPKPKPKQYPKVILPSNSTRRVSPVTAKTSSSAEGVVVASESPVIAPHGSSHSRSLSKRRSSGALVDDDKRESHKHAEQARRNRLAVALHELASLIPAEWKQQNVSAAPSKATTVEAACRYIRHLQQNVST
Oligonucleotide,fluorescence intensity [a.u.]
CAGTCTGATTGCCATCACGTGATGGTAACGTAAGTCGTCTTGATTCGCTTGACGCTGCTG,13400
TCGAGAGATAAAGTACATGTGCCTAGGTAAGCTGTAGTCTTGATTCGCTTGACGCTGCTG,9680
AGAGTGGTGCTGAAGCTCGTGACGGGAACAAGATCAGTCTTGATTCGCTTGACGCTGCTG,6810
GTCTTGTCTCATTGCGTAGTGGGTGTCCCCACTTCAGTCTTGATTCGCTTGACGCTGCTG,4420
AAAGCGGTAATTTGGAAGGTGGGTGCAGATATCTATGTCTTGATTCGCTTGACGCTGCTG,4580
CTGTCCATAACTTCTCTCGTGACTCGGCCAAGGATGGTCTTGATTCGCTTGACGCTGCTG,6160
AGCCGACGCCGTAGTCGCGTGCCGATGCCCTTAGCGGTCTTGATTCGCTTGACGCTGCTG,7680
AAATTACTAAGTTGTCACATGACTTACCCCGTATGAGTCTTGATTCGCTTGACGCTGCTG,6410
CTTCAGTTTTTTCACCACGTGAAGAGAATATGGATAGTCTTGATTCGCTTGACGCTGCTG,16500
ATTTCTTTTCCAATTCACGGGTCAATTTGGTTTGGAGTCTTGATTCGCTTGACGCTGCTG,4740
TGCAAGAAAAAATAGGTCGTGACAAATTCGCCCCTAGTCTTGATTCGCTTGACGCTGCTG,5440
TCATCGCACATTTTGCACGATGAGGACACAGGAAATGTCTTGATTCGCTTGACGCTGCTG,9220
ACAAGGAAGGTATCCCACCTGACGAACAAAGATTGAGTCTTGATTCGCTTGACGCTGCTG,4760
CATACCCAACCTTTTCACGTGATATAAGATATTTGTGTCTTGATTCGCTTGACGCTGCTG,12600
ACCGGTGCAACTTTCCACATGCACTCTCATTGAGACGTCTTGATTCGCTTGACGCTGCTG,7590
CGGGGTTAAGTTTGCCCAGTGGGTGGCTTGCAGCAGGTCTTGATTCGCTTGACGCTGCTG,4650
AAATTACTAAGTTGATCCGTGGGTGACGCCGTATGAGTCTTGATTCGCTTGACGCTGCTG,5380

# For quick reference, copied from above (study 2):
Oligonucleotide,log2 enrichment
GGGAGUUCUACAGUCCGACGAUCAGUCCUGUGCUACACAUCGUAUGUACCGAAUCAAAUUUUUAAAUUUAAAUUUUUAAAAAAGUAUUAUGUUACGCCGUUCGGAUCUGCACUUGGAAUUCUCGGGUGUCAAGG,-1.25
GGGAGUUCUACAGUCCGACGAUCACUGAUGAGAGCCUGAGGAGCCAUUUUGAGCAAUGGGGAACGCUCACGGACUGUGUGGUAAGAUUUGGAAGGGACAAAGCAGUAAAACAGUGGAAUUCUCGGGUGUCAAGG,0.249
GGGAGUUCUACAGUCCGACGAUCCACAGACAACACGCACCCACACAGACACAGAGGGAAGGGGUUGGGAUGGGGACAGGGUGCACAGCUGGGCGGGGUAGGACCCCAGCCCCUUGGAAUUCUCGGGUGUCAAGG,1.34
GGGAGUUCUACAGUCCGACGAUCGCAGGAAGUAAAAACAAAUGGAAAUGCUUCGGAUUGUGGCAGGGGUGGGGGUUGCUAAGGAAAGGGUGGGAUGGGAGUGGGUAAAGAGUUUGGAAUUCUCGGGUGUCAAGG,0.27
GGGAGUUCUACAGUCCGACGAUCACCAUGCAGGUGGGCAUCUUUGGGAAGUGGGGAAAGGGGGGGAUAGGGAGGGGGGUAACACUUUGGGAACAGGUGGUCCCAGGUCGUUUCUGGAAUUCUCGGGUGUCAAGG,0.626
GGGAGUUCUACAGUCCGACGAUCGCAGGAAGUAAAAACAAAUGGAAAUGCUUCGGAUAGUGGCAGGGGUGGGGGUUGCUAAGGAAAGGGUGGGAUGGAAGUGGGUAAAGAGUUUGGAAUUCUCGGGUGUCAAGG,0.292
